{"data": "Experimental data pooled from the literature", "MPO": "Myeloperoxidase (MPO, Homo sapiens, UniProt P05164)", "CTSL": "Procathepsin L (CTSL, Homo sapiens, UniProt P07711)", "Transmembrane protease serine 6": "Transmembrane protease serine 6 (Homo sapiens, UniProt Q8IU80)", "note": "Compare with care: the assays were run in different laboratories.", "sequence of UniProt P07711 (whole entry, looked up)": "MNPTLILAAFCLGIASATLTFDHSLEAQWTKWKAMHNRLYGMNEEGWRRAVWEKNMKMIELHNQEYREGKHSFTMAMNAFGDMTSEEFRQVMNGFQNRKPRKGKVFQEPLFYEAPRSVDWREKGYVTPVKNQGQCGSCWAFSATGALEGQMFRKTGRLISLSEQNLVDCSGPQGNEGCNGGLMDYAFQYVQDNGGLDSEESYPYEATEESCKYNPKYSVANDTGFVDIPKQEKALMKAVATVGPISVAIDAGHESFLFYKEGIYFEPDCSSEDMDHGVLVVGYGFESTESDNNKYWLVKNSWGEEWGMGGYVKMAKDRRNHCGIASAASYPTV", "sequence of UniProt Q8IU80 (whole entry, looked up)": "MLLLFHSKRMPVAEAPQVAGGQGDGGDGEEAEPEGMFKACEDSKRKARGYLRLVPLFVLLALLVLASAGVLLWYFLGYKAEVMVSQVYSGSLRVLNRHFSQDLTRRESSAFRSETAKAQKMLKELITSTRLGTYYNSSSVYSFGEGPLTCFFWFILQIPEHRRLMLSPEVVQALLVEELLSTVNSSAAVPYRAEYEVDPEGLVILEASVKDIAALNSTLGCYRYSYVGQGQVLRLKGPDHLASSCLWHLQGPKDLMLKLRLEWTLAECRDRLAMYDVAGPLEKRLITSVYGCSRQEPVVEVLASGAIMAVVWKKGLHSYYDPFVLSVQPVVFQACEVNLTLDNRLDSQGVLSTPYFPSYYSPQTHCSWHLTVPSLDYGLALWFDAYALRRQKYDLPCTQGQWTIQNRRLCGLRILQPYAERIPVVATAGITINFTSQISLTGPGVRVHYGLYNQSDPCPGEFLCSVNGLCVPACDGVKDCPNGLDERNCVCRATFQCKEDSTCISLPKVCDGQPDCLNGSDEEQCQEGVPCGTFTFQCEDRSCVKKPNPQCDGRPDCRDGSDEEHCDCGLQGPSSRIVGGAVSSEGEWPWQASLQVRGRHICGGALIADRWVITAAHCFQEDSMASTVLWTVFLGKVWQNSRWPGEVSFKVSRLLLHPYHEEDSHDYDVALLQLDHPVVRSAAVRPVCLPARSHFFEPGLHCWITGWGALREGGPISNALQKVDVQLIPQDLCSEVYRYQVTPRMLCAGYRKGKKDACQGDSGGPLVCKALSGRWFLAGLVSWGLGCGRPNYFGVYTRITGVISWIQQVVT", "sequence of UniProt P05164 (whole entry, looked up)": "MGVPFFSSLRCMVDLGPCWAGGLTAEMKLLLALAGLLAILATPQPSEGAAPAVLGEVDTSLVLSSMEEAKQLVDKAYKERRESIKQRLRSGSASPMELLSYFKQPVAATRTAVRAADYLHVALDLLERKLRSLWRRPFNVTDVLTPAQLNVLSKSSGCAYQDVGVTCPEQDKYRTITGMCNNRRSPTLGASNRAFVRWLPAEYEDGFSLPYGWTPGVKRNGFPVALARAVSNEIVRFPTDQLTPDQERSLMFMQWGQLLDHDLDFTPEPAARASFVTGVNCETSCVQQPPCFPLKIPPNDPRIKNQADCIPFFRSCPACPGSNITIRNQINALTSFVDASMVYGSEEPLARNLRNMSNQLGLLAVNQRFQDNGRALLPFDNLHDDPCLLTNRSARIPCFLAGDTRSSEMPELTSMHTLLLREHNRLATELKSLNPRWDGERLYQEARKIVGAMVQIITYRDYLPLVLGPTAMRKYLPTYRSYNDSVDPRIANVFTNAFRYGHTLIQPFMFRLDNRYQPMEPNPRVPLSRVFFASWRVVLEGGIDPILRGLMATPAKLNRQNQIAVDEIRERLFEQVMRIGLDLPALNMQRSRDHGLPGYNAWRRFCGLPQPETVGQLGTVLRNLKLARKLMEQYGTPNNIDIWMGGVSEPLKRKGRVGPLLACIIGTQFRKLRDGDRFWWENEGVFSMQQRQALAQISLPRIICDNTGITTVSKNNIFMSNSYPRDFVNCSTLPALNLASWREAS", "sequence of UniProt Q00535 (whole entry, looked up)": "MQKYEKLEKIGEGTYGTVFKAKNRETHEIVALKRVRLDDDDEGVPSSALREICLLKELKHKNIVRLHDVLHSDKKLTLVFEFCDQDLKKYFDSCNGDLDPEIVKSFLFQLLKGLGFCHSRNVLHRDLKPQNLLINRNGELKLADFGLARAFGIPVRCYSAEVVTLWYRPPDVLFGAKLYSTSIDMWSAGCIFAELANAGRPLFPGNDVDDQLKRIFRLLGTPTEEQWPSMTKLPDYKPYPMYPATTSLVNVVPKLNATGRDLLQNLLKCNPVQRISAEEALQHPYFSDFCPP", "sequence of UniProt Q9Y5Y6 (whole entry, looked up)": "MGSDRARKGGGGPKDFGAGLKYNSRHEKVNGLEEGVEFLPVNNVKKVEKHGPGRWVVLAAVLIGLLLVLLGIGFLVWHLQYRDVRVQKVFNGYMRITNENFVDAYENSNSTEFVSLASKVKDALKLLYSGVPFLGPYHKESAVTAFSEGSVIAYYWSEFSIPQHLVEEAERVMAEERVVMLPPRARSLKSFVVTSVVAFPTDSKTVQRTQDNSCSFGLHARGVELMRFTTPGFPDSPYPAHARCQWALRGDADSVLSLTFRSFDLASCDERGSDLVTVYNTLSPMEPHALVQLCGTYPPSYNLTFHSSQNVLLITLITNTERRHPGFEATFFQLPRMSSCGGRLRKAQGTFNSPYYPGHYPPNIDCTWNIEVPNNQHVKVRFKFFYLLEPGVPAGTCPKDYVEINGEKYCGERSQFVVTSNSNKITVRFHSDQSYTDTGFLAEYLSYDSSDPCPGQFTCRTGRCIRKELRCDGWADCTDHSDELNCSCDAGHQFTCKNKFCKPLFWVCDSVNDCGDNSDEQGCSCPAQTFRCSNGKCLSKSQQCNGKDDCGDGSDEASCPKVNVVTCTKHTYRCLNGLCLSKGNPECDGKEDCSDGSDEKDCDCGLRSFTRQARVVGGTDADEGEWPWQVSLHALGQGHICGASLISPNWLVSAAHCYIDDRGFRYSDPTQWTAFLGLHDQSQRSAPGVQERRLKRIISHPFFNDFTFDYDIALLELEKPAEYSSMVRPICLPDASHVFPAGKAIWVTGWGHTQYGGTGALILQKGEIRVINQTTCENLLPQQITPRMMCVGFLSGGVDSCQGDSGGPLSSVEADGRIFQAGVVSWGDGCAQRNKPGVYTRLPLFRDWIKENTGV", "sequence of UniProt O75385 (whole entry, looked up)": "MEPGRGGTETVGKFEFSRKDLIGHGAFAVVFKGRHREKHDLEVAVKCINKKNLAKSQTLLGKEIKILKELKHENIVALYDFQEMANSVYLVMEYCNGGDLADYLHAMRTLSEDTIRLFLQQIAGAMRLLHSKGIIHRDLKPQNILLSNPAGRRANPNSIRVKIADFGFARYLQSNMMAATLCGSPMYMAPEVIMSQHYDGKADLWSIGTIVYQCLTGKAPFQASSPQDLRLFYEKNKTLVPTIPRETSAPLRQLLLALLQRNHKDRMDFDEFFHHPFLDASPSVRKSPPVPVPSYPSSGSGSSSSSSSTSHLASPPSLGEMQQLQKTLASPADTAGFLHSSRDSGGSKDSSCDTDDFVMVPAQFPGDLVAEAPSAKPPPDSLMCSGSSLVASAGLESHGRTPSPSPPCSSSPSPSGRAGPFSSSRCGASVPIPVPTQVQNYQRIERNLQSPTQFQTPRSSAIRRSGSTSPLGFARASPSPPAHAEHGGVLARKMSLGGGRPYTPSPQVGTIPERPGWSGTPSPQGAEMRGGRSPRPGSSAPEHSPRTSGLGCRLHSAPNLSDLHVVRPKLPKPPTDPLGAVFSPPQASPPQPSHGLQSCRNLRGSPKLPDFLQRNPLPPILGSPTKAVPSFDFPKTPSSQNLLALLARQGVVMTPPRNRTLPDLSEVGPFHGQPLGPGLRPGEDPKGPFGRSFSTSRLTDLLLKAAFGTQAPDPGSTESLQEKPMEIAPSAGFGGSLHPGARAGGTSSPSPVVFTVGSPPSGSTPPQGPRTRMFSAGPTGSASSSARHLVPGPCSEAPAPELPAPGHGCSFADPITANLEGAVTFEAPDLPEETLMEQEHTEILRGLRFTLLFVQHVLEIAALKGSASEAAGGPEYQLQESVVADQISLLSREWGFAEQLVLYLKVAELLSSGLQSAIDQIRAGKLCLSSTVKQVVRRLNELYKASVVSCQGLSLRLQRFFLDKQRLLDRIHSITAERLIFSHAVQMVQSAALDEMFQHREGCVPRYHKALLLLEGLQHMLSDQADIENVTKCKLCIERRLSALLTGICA", "sequence of UniProt P48426 (whole entry, looked up)": "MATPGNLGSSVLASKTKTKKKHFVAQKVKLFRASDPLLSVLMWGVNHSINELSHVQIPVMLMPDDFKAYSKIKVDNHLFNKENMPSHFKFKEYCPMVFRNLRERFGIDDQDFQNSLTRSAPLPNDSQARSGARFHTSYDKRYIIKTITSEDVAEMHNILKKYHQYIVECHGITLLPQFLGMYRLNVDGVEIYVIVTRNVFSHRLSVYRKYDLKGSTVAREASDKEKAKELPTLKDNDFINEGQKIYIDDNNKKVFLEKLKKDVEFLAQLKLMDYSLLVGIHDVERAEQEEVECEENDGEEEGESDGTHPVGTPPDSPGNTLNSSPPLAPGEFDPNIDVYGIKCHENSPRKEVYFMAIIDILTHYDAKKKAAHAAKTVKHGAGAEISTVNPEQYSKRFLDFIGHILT", "sequence of UniProt P42685 (whole entry, looked up)": "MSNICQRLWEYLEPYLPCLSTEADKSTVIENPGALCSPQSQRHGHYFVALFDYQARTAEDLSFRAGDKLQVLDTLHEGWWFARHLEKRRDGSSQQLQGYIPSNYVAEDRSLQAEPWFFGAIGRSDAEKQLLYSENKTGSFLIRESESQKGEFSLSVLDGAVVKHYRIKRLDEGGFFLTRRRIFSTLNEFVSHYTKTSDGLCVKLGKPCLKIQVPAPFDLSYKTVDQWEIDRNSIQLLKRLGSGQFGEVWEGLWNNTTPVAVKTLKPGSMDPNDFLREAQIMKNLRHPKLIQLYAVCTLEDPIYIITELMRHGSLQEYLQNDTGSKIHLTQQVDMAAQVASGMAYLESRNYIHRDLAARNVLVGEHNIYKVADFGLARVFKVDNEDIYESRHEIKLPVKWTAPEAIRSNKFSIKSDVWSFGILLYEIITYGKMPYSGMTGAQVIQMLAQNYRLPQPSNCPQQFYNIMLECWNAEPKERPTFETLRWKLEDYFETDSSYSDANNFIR"}
{"SMILES": "Cc1cc([C@@H](C)Nc2ccccc2C(=O)O)c2nc(N3CCC(F)(F)CC3)c(C#N)c(=O)n2c1", "target": "Phosphatidylinositol 4-phosphate 5-kinase type-1 gamma (PIP5K1C, Homo sapiens, UniProt O60331)", "assay": "enzyme activity, inhibitor, ADP detection", "setting": "10 µM", "measurement": "remaining activity", "result": "108%"}
{"SMILES": "CC[C@H](C)[C@H](NC(=O)[C@H](CCC(N)=O)NC(=O)[C@@H](NC(=O)[C@H](CCSC)NC(=O)[C@H](CCCCN)NC(=O)[C@H](CO)NC(=O)[C@@H](NC(=O)[C@H](CCSC)NC(=O)[C@H](CC(C)C)NC(=O)[C@H](CC(N)=O)NC(=O)[C@@H](NC(=O)[C@@H](NC(=O)[C@H](CO)NC(=O)[C@H](CC(C)C)NC(=O)[C@H](C)NC(=O)[C@H](CCCNC(=N)N)NC(=O)[C@H](CCC(=O)O)NC(=O)[C@H](Cc1ccc(O)cc1)NC(=O)[C@H](Cc1ccccc1)NC(=O)[C@H](C)NC(=O)[C@H](CC(N)=O)NC(=O)[C@@H](N)CCCCN)[C@@H](C)CC)[C@@H](C)CC)[C@@H](C)O)C(C)C)C(=O)N[C@@H](CC(N)=O)C(=O)N[C@H](C(=O)O)C(C)C", "target": "Cyclin-dependent kinase 5, with p25 (CDK5, Homo sapiens, UniProt Q00535)", "assay": "enzyme activity, inhibitor, radiometric", "setting": "100 µM, 20 min", "measurement": "remaining activity", "result": "54%"}
{"SMILES": "CC(C)OCCn1c(=S)[nH]c(=O)c2[nH]ccc21", "target": "MPO", "assay": "enzyme activity, inhibitor", "setting": "1.25 µM", "measurement": "remaining activity", "result": "28.3%"}
{"SMILES": "O=C(/C=C/c1ccc(O)cc1)NCCc1c[nH]c2ccc(O)cc12", "target": "CTSL", "assay": "enzyme activity, inhibitor", "setting": "100 µM", "measurement": "remaining activity", "result": "75.5%"}
{"SMILES": "CC(C)C[C@H](NC(=O)[C@H](Cc1cscn1)NC(=O)CCc1ccccc1)C(=O)N[C@@H](CCCNC(=N)N)C(=O)c1nc2ccccc2s1", "target": "Transmembrane protease serine 6", "assay": "enzyme activity, inhibitor", "setting": "0.1 µM", "measurement": "remaining activity", "result": "0%"}
{"SMILES": "O=C(N[C@H](COC(=O)[C@H](Cc1ccccc1)NC(=O)c1ccccc1)Cc1ccccc1)c1ccccc1", "target": "CTSL", "assay": "enzyme activity, inhibitor", "setting": "100 µM", "measurement": "remaining activity", "result": "9.2%"}
{"SMILES": "COc1cc(Cl)c(C(=O)N[C@@H](CN[C@H]2CC[C@@H](N)CC2)Cc2ccc(C#N)cc2)cc1-c1ccc(CN[C@H](C)c2ccc(C)cc2)o1", "target": "Phosphatidylinositol 5-phosphate 4-kinase type-2 alpha (PIP4K2A, Homo sapiens, UniProt P48426)", "assay": "enzyme activity, inhibitor", "setting": "1 µM", "measurement": "remaining activity", "result": "102%"}
{"SMILES": "CC[C@H](C)[C@H](NC(=O)[C@H](CCC(N)=O)NC(=O)[C@H](CC(C)C)NC(=O)[C@H](CCSC)NC(=O)[C@H](CCCCN)NC(=O)[C@H](CO)NC(=O)[C@H](CO)NC(=O)[C@H](CCSC)NC(=O)[C@H](CC(C)C)NC(=O)[C@H](CC(N)=O)NC(=O)[C@@H](NC(=O)[C@@H](NC(=O)[C@H](CO)NC(=O)[C@H](CC(C)C)NC(=O)[C@H](CS)NC(=O)[C@H](CCCNC(=N)N)NC(=O)[C@H](CC(=O)O)NC(=O)[C@H](Cc1c[nH]c2ccccc12)NC(=O)[C@H](Cc1ccccc1)NC(=O)[C@H](C)NC(=O)[C@H](CCC(=O)O)NC(=O)[C@@H](N)CCCCN)C(C)C)[C@@H](C)CC)C(=O)N[C@@H](CC(N)=O)C(=O)N[C@@H](C)C(=O)O", "target": "Cyclin-dependent kinase 5, with p35 (CDK5, Homo sapiens, UniProt Q00535)", "assay": "enzyme activity, inhibitor, radiometric", "setting": "500 µM, 20 min", "measurement": "remaining activity", "result": "24%"}
{"SMILES": "C=CC(=O)N1CCC(COCC(=O)N2CCN(c3nc(-c4cnc(N)nc4C(F)F)nc(N4CCOC[C@@H]4C)n3)CC2)CC1", "target": "Serine/threonine-protein kinase 16 (STK16, Homo sapiens, UniProt O75716)", "assay": "binding, competition with immobilised ligand", "setting": "1 µM", "measurement": "remaining binding", "result": "100%"}
{"SMILES": "N=C(N)NCCC[C@H](NC(=O)[C@H](Cc1ccccc1)NC(=O)[C@H](Cc1cscn1)NC(=O)CCc1ccccc1)C(=O)c1nc2ccccc2s1", "target": "Suppressor of tumorigenicity 14 protein (ST14, Homo sapiens, UniProt Q9Y5Y6)", "assay": "enzyme activity, inhibitor", "setting": "0.1 µM", "measurement": "remaining activity", "result": "2%"}
{"SMILES": "NS(=O)(=O)c1ccc(CNc2ccnc(Nc3cccc(NC(=O)N4CCCC4)c3)n2)cc1", "target": "Serine/threonine-protein kinase ULK1 (ULK1, Homo sapiens, UniProt O75385)", "assay": "enzyme activity, inhibitor, radiometric", "setting": "1 µM", "measurement": "remaining activity", "result": "97%"}
{"SMILES": "O=c1c(O)c(-c2ccc(O)cc2)oc2cc(O)cc(O)c12", "target": "CTSL", "assay": "enzyme activity, inhibitor", "setting": "100 µM", "measurement": "remaining activity", "result": "74.9%"}
{"SMILES": "NC/C(=C\\F)COc1cccc(Cn2c(=S)[nH]c(=O)c3[nH]cnc32)c1", "target": "MPO", "assay": "enzyme activity, inhibitor", "setting": "5 µM", "measurement": "remaining activity", "result": "1.13%"}
{"SMILES": "NC[C@H]1O[C@H](O[C@H]2[C@H](O)[C@@H](O[C@H]3O[C@H](CO)[C@@H](O)[C@H](N)[C@H]3O)[C@H](N)C[C@@H]2N)[C@H](N)C[C@@H]1O", "target": "CTSL", "assay": "enzyme activity, inhibitor", "setting": "100 µM", "measurement": "remaining activity", "result": "89.4%"}
{"SMILES": "CNc1ncc2c(/C=C/C(=O)N3CCC(OC)CC3)nn(Cc3cccc(C(F)(F)F)c3)c2n1", "target": "Tyrosine-protein kinase FRK (FRK, Homo sapiens, UniProt P42685)", "assay": "enzyme activity, inhibitor, radiometric", "setting": "1 µM", "measurement": "remaining activity", "result": "75%"}
{"SMILES": "COc1cc(O)ccc1/C=C/C(=O)c1ccc(O)cc1", "target": "CTSL", "assay": "enzyme activity, inhibitor", "setting": "100 µM", "measurement": "remaining activity", "result": "36.7%"}
{"SMILES": "N=C(N)NCCC[C@H](NC(=O)[C@@H](CC1CCCCC1)NC(=O)[C@H](Cc1cscn1)NC(=O)CCc1ccccc1)C(=O)c1nc2ccccc2s1", "target": "Transmembrane protease serine 6", "assay": "enzyme activity, inhibitor", "setting": "0.1 µM", "measurement": "remaining activity", "result": "94%"}
{"SMILES": "CC(C)=CCc1c(O)ccc(C(=O)/C=C/c2ccc(O)cc2)c1O", "target": "CTSL", "assay": "enzyme activity, inhibitor", "setting": "100 µM", "measurement": "remaining activity", "result": "50.2%"}
{"SMILES": "COc1cc(-c2cncc3c2CN(C)Cc2cc(N4CCNCC4)ccc2-3)cc(OC)c1OC", "target": "Mitogen-activated protein kinase 12 (MAPK12, Homo sapiens, UniProt P53778)", "assay": "enzyme activity, inhibitor", "setting": "1 µM", "measurement": "remaining activity", "result": "106%"}
{"note": "Repeated from above:"}
{"SMILES": "CC(C)=CCc1c(O)ccc(C(=O)/C=C/c2ccc(O)cc2)c1O", "target": "CTSL", "assay": "enzyme activity, inhibitor", "setting": "100 µM", "measurement": "remaining activity", "result": "50.2%"}
{"SMILES": "NS(=O)(=O)c1ccc(CNc2ccnc(Nc3cccc(NC(=O)N4CCCC4)c3)n2)cc1", "target": "Serine/threonine-protein kinase ULK1 (ULK1, Homo sapiens, UniProt O75385)", "assay": "enzyme activity, inhibitor, radiometric", "setting": "1 µM", "measurement": "remaining activity", "result": "97%"}
